Measurements pooled from the literature.
Several values in a cell are separate wells, animals, samples, runs or records. ± gives the spread as reported. In brackets after ≈: the same amount, converted by molar mass.

Structure (SMILES) | organism | assay | test system | setting | scale | endpoint | value
Cc1ccccc1-n1nc(C(=O)Nc2cccc(C(N)=O)c2)cc1-c1cccnc1 | Dengue virus | viral replication, inhibitor, imaging | Vero, DENV2 | 12.5 µM | – | inhibition | < 50%
NCCOCCO.O=C(O)C(Cl)Cl | Xanthium sibiricum | – | – | 15 mg/mL, 21 days, pre-emergence, greenhouse | – | herbicidal inhibition | 0%
CNCc1ccc2c(c1)N(C(=O)OCc1c(F)c(F)c(F)c(F)c1F)[C@H](CNC(=N)N)[C@H]2NC(=O)C(=O)Nc1ccc(Cl)c(F)c1 | HIV-1 | pseudovirus infection, Env pseudovirus neutralisation | TZM-bl, clade B T/F isolate d15_410_787 | – | – | IC50 | 0.197 µM
CCC1(CC)CC(=O)N(C2c3cc(C(=O)NC4c5ccccc5CC4O)ccc3OC2(C)COC)C(=N)N1 (centres unmarked) | Plasmodium falciparum | – | 3D7 | 10 × EC50, 120 h, 99% clearance | – | parasite clearance time | 54.5 h
C[N+](C)(C)CCO.O=C([O-])C(Cl)Cl | Xanthium sibiricum | – | – | 15 mg/mL, 21 days, post-emergence, greenhouse | – | herbicidal inhibition | 0%
C#CCNC(=O)C(C)(C)O/N=C(\C(=O)N[C@@H]1C(=O)N(S(=O)(=O)O)[C@H]1C)c1csc(N)n1 | Citrobacter freundii | agar dilution | ATCC 43864 susceptible | – | – | MIC | 4 mg/L (≈ 8.47 µM)
CC(C)(C)NCC(SS(=O)(=O)O)c1ccccc1 (centres unmarked) | Schistosoma mansoni | perfusion day 52 | infected Swiss Webster mice | 600 mg/kg single dose, 1248 h, dosed day 7 post-infection | reference: vehicle control | spleen weight decrease | 23%
C#CCO/N=C(\C(=O)N[C@@H]1C(=O)N(OS(=O)(=O)O)C1(C)C)c1csc(N)n1 | Citrobacter freundii | agar dilution | ATCC 43864, susceptible | – | – | MIC | 0.5 mg/L (≈ 1.2 µM)
N=C(N)NCCC[C@@H]1NC(=O)[C@H](CCCNC(=N)N)NC(=O)[C@@H](CCCNC(=N)N)NC(=O)[C@@H](CCCNC(=N)N)NC(=O)[C@@H](C(c2ccccc2)c2ccccc2)NC(=O)[C@H](Cc2c[nH]c3ccccc23)NC(=O)[C@@H](C(c2ccccc2)c2ccccc2)NC1=O | Candida albicans | – | ATCC 60193 | 4 x MIC, 8 h | – | reduction of viable cells | > 85%
CN(C(=O)[C@H](Cc1ccccc1)NC(=O)Cc1c[nH]c2ccc(O)cc12)c1ccc(Cl)cc1 | human immunodeficiency virus 1 | viral replication | NL4-3 with subtype AE gag/pol | – | – | EC50 | 0.018 ± 0.004 µM
COC(=O)[C@H](C)NC(=O)c1ccccc1NC(=O)[C@H](Cc1ccc(OC(C)(C)C)cc1)N(C)C(=O)[C@@H](NC(=O)OCc1ccccc1)C(C)C | Candida albicans | potentiator, broth microdilution | ATCC 90029 | 16.0 µg/mL, with: amphotericin B | reference: amphotericin B alone | fold potentiation | 32
CC1(C)[C@H](NC(=O)/C(=N\OCc2c(Cl)cccc2Cl)c2csc(N)n2)C(=O)N1OS(=O)(=O)O | Providencia rettgeri | agar dilution | ATCC 31052, susceptible | – | – | MIC | ≤ 0.03 mg/L
C=C(NC(=O)c1csc(-c2nc3c(cc2O)-c2nc(cs2)C(=O)NC(C(C)O)C(=O)NC(=C(C)OC)c2nc(cs2)C(=O)NC2c4nc(cs4)C(=O)NC(COC(=O)c4c5c6c(cccc6n4O)COC(=O)C(OC4CC(C)(O)C(N(C)C)C(C)O4)C2OC5)c2nc-3cs2)n1)C(N)=O (centres unmarked) | Staphylococcus aureus | – | ATCC 43300 MRSA | 1 x MIC, 2 h exposure | – | post-antibiotic effect | 0.82 ± 0.11 h
Cc1ccc(N(C)C(=O)[C@H](Cc2ccccc2)NC(=O)Cc2c[nH]c3ccc(O)cc23)cc1 | human immunodeficiency virus 1 | viral replication | NL4-3 with subtype AE gag/pol | – | – | EC50 | 0.05 ± 0.02 µM
Cc1cc(C(=O)Nc2nc3cccc(C)c3n2[C@H]2CCCCN(C(=O)/C=C/CN(C)C)C2)ccn1 | Trypanosoma brucei brucei | – | Lister 427 | 16.67 µM, 24 h, kill kinetics | – | proliferation | 3.71% and 4.9% and 1.71% and 4.36% and 2.8% and 2.96%
Cc1cccc2c1N(C(=O)n1ccnn1)CC2 | Arabidopsis thaliana | – | wild type, seeds | 3 µM, high ambient temperature | – | germination rate | 78% and 7.5% and 6.5% and 74.1% and 2.3% and 2.9%
c1ccc2c([C+](c3c[nH]c4ccccc34)c3c[nH]c4ccccc34)c[nH]c2c1 | Clostridioides difficile | microbial growth, absorbance | – | – | – | IC50 | > 50 µM
COC1C=COC2(C)Oc3c(C)c(O)c4c(c3C2=O)C2=NC3(CCN(CC(C)C)CC3)NC2=C(NC(=O)C(C)=CC=CC(C)C(O)C(C)C(O)C(C)C(OC(=O)Nc2cnccn2)C1C)C4=O (centres unmarked) | Mycobacteroides abscessus | bacterial growth | subsp. abscessus K21 clinical isolate | – | – | IC50 | 0.019 µM
C=C[C@]1(C)C[C@@H](OC(=O)CSc2ccc(NC(=O)c3ccco3)cc2)[C@]2(C)[C@H](C)CC[C@]3(CCC(=O)[C@H]32)[C@@H](C)[C@@H]1O | Mycoplasma gallisepticum | – | infected chickens | intramuscular, 70 mg/kg daily x3, scale 0 to 4 | direction not given | air sac lesion score | 1 and 3 and 2 and 0
O=C(Nc1cccc(CO)c1)c1cc(-c2ccccc2)n(-c2ccccc2)n1 | Dengue virus | viral replication, inhibitor, imaging | Vero, DENV2 | 12.5 µM | – | inhibition | > 60%
Cc1cc(N2CC[C@@](C#N)(C3(C)CC3)C2=O)cc(C(=O)NCc2cc(F)cc(-c3cnn(C)c3)c2)n1 | Plasmodium falciparum | – | Pf3D70087/N9, humanized SCID mouse | 10 mg/kg, 4-day test, day 0 post-infection | – | parasitaemia | 0.01%
CC/C(O)=C1/C(=O)N2[C@@H](c3ccccc3)SC[C@]2(C(=O)OC2CCCCC2)C1=O | Streptomyces | bacterial growth, broth dilution | Mueller-Hinton broth | 24 h, 35 °C | – | MIC | 31.3 mg/L (≈ 75.3 µM)
c1ccc(CN2CCOCCOCCN(CCCCCCCCCCCCN3CCOCCOCCN(CCCCCCCCCCCCN4CCOCCOCCN(Cc5ccccc5)CCOCCOCC4)CCOCCOCC3)CCOCCOCC2)cc1 | Klebsiella pneumoniae | checkerboard | ATCC BAA-2146 | quarter MIC, with: tetracycline | – | FIC index | 0.58

Repeated from above:
Structure (SMILES) | organism | assay | test system | setting | scale | endpoint | value
CC(C)(C)NCC(SS(=O)(=O)O)c1ccccc1 (centres unmarked) | Schistosoma mansoni | perfusion day 52 | infected Swiss Webster mice | 600 mg/kg single dose, 1248 h, dosed day 7 post-infection | reference: vehicle control | spleen weight decrease | 23%
C#CCO/N=C(\C(=O)N[C@@H]1C(=O)N(OS(=O)(=O)O)C1(C)C)c1csc(N)n1 | Citrobacter freundii | agar dilution | ATCC 43864, susceptible | – | – | MIC | 0.5 mg/L (≈ 1.2 µM)
N=C(N)NCCC[C@@H]1NC(=O)[C@H](CCCNC(=N)N)NC(=O)[C@@H](CCCNC(=N)N)NC(=O)[C@@H](CCCNC(=N)N)NC(=O)[C@@H](C(c2ccccc2)c2ccccc2)NC(=O)[C@H](Cc2c[nH]c3ccccc23)NC(=O)[C@@H](C(c2ccccc2)c2ccccc2)NC1=O | Candida albicans | – | ATCC 60193 | 4 x MIC, 8 h | – | reduction of viable cells | > 85%
CN(C(=O)[C@H](Cc1ccccc1)NC(=O)Cc1c[nH]c2ccc(O)cc12)c1ccc(Cl)cc1 | human immunodeficiency virus 1 | viral replication | NL4-3 with subtype AE gag/pol | – | – | EC50 | 0.018 ± 0.004 µM
